Results gathered from unrelated publications.
Each line is one published result; not all experiments were run side by side. Values joined by “and” are separate records of one study, mostly repeats; a detail may differ. ± gives the spread as reported.
GLP1R: Glucagon-like peptide 1 receptor (GLP1R, Homo sapiens, UniProt P43220)
Chain of UniProt O76090 (whole entry, unmodified, looked up): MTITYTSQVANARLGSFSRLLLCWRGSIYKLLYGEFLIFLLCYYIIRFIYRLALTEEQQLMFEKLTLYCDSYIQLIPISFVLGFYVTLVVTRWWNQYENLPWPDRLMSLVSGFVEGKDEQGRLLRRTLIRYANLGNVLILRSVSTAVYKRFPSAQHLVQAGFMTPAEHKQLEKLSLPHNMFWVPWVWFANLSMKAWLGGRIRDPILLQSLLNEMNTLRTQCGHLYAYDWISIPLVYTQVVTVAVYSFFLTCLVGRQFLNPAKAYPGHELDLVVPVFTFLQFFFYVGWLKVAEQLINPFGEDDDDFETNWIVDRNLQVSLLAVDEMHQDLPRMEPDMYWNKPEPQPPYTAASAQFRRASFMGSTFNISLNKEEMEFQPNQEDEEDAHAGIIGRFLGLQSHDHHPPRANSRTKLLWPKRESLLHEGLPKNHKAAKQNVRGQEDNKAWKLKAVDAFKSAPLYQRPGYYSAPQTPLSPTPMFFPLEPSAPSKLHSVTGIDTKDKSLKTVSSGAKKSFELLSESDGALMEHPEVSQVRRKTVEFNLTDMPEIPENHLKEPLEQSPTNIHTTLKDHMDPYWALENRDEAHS
Chain of UniProt Q16774 (whole entry, looked up): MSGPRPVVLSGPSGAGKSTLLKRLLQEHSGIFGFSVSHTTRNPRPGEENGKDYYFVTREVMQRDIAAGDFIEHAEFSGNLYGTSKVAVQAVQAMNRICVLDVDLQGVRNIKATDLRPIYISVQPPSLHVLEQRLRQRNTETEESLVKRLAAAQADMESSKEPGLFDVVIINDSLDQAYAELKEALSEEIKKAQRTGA
Chain of UniProt O15164 (whole entry, looked up): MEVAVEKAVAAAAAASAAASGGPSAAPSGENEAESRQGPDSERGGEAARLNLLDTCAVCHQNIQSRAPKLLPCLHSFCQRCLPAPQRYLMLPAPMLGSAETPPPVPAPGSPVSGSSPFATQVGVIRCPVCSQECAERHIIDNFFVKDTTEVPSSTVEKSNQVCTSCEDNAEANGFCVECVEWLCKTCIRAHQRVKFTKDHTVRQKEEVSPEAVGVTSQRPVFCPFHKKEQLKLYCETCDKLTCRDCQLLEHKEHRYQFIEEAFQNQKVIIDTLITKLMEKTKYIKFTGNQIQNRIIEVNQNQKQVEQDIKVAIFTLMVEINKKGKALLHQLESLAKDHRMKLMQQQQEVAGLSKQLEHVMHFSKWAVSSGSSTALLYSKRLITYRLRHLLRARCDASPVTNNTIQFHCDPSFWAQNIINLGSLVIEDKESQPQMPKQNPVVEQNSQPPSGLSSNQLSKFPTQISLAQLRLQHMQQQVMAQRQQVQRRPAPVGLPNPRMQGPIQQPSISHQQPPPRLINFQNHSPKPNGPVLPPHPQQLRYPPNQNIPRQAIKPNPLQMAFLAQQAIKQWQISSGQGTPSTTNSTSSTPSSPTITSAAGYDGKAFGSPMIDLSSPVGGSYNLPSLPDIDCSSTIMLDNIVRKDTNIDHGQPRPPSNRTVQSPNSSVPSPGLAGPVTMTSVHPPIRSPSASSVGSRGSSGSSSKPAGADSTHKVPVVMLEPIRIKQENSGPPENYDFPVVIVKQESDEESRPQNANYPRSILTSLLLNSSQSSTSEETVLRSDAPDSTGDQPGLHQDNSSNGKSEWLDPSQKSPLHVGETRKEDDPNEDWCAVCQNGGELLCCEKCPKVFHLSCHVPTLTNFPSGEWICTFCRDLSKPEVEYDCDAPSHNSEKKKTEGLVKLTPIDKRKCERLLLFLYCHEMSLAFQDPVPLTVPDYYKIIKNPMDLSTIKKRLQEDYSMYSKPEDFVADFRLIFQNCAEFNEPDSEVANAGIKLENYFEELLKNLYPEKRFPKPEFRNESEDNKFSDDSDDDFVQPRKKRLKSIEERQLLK
Chain of UniProt Q9Y3R4 (whole entry, looked up): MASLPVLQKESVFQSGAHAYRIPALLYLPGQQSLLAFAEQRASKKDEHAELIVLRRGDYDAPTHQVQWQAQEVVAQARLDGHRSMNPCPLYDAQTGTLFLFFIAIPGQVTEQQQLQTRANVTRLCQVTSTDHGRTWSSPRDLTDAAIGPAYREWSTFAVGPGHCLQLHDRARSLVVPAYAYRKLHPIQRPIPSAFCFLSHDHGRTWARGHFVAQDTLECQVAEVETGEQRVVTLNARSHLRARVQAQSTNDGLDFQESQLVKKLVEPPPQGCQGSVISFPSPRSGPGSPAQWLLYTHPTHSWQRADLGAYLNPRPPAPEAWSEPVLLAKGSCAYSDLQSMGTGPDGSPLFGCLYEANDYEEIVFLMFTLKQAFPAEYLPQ
Chain of UniProt P11388 (whole entry, looked up): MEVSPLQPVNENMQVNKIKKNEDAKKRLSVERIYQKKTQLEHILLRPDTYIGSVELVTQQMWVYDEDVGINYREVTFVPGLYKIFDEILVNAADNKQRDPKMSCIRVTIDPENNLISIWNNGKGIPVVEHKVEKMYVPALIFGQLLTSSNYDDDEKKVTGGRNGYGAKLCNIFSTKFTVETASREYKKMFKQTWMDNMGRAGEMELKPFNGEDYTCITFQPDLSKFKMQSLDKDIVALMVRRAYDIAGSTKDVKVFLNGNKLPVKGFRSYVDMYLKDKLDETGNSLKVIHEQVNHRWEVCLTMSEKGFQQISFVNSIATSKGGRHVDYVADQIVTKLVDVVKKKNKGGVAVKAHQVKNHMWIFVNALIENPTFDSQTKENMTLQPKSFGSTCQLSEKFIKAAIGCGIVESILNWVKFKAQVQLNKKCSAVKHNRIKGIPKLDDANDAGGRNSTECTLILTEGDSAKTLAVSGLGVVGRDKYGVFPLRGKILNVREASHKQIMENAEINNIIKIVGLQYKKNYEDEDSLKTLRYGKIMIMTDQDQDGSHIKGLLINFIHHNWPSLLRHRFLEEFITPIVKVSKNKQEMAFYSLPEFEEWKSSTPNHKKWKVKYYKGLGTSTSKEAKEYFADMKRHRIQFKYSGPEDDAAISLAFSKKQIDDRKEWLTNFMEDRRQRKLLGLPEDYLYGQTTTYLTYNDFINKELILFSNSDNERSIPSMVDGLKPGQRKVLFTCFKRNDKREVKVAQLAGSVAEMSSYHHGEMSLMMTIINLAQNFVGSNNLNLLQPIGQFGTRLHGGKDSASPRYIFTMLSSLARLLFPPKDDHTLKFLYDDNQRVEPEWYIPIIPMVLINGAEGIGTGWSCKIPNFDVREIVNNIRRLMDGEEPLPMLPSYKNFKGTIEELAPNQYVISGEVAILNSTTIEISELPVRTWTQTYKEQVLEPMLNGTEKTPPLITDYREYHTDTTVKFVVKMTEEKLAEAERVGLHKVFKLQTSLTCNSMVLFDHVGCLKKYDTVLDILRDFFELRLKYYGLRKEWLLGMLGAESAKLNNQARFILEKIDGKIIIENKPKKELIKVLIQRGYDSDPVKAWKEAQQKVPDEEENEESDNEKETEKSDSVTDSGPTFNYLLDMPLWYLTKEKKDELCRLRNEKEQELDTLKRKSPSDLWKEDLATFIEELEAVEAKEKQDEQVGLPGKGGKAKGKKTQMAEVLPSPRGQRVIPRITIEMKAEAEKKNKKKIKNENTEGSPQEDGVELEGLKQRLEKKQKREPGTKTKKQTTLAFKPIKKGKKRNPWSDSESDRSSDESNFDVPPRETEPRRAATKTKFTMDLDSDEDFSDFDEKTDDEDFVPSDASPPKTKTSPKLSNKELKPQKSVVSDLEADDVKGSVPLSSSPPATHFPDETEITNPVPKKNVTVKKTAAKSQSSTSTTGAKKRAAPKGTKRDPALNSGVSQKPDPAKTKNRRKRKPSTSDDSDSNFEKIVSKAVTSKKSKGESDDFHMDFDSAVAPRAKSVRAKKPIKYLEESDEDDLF
Chain of UniProt P41597 (whole entry, looked up): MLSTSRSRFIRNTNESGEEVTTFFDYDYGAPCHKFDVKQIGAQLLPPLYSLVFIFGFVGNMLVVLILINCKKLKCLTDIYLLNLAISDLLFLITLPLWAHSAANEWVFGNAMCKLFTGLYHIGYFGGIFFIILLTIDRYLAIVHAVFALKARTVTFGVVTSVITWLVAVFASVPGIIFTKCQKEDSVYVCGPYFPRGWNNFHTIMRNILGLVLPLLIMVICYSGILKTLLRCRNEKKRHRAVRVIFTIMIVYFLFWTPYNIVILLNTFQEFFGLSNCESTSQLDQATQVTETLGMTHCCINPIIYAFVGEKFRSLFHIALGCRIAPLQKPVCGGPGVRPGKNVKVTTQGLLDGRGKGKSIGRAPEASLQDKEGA
Chain of UniProt P00441 (whole entry, unmodified, looked up): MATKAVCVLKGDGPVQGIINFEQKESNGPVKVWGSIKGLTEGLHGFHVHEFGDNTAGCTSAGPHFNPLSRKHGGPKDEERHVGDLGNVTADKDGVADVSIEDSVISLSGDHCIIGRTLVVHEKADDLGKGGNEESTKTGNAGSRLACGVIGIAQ
Chain of UniProt O75751 (whole entry, looked up): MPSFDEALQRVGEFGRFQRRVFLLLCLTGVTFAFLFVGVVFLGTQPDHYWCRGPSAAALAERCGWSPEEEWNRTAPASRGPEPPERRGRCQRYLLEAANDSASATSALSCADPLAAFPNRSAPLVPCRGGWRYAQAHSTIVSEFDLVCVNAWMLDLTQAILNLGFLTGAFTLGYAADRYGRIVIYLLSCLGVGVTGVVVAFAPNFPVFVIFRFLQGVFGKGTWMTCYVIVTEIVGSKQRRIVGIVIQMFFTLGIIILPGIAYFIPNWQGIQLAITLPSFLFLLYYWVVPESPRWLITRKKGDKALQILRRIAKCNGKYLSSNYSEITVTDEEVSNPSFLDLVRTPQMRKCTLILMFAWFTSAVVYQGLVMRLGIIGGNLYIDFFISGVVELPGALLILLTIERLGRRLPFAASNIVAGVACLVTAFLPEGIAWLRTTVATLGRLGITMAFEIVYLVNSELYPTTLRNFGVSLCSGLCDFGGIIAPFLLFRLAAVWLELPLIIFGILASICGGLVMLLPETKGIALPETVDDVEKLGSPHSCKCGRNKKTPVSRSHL

Compound | target | assay | test system | conditions | how to read | quantity | result
CC[C@H](C)[C@H](NC(=O)[C@H](Cc1ccccc1)NC(=O)[C@H](CCC(=O)O)NC(=O)[C@H](CCCNC(=N)N)NC(=O)[C@H](C)NC(=O)[C@H](C)NC(=O)[C@H](CCC(N)=O)NC(=O)[C@H](CCCCNc1c(NCCCCCN(O)C(=O)CCC(=O)NCCCCCN(O)C(=O)CCC(=O)NCCCCCN(O)C(C)=O)c(=O)c1=O)NC(=O)[C@H](CCC(=O)O)NC(=O)[C@H](CC(C)C)NC(=O)[C@H](Cc1ccc(O)cc1)NC(=O)[C@H](CO)NC(=O)[C@H](CO)NC(=O)[C@@H](NC(=O)[C@H](CC(=O)O)NC(=O)[C@H](CO)NC(=O)[C@@H](NC(=O)[C@H](Cc1ccccc1)NC(=O)[C@@H](NC(=O)CNC(=O)[C@H](CCC(=O)O)NC(=O)[C@H](C)NC(=O)CCc1cnc[nH]1)[C@@H](C)O)[C@@H](C)O)C(C)C)C(=O)N[C@@H](C)C(=O)N[C@@H](Cc1c[nH]c2ccccc12)C(=O)N[C@@H](CC(C)C)C(=O)N[C@H](C(=O)N[C@@H](CCCNC(=N)N)C(=O)NCC(=O)N[C@@H](CCCNC(=N)N)C(=O)N[C@@H](CCCCNC(=O)COCCOCCNC(=O)COCCOCCNC(=O)CC[C@H](NC(=O)CCCCCCCCCCCCCCCCC(=O)O)C(=O)O)C(=O)NCC(=O)NCC(=O)N[C@@H](CO)C(=O)N[C@@H](CCCCNc1c(NCCCCCN(O)C(=O)CCC(=O)NCCCCCN(O)C(=O)CCC(=O)NCCCCCN(O)C(C)=O)c(=O)c1=O)C(=O)O)C(C)C | GLP1R | agonist, CRE luciferase reporter | BHK cells | metal-free DFO conjugate, together with: 1% HSA | baseline: parent peptide | fold potency loss | 4.4
N#Cc1ccc2[nH]cc(CCCCN3CCN(c4ccc5oc(C(N)=O)cc5c4)CC3)c2c1 | SLC6A4 (Homo sapiens, UniProt P31645, F556A/S438T) | [3H]5-HT uptake, inhibitor | COS-7 |  |  | Hill coefficient | 1.11 ± 0.22
CCCCCCCCCCCC1=C(O)C(=O)C=C(O)C1=O | de novo protein S23 | CD spectroscopy titration |  | concentration not given |  | binding | not detected
CC[C@H](C)[C@@H]1NC(=O)[C@H]([C@@H](C)CC)NC(=O)[C@@H](Cc2ccc(O)cc2)NC(=O)CSC[C@@H](C(N)=O)NC(=O)[C@H](CCCNC(=N)N)NC(=O)[C@H](CCCCN)NC(=O)[C@H](CC(C)C)NC(=O)[C@H](CO)NC(=O)[C@H](CO)NC(=O)[C@H](CC(C)C)NC(=O)[C@H](Cc2ccccc2)NC(=O)[C@H](C(C)C)NC(=O)CNC(=O)[C@H](CC(C)C)NC(=O)[C@@H]2CCCN2C(=O)[C@H]([C@@H](C)O)NC(=O)[C@H](CC(=O)O)NC1=O | Vacuolar protein sorting-associated protein 29 (VPS29, Homo sapiens, UniProt Q9UBQ0) | binding, ITC |  | 25 °C, protein alone |  | ΔH | -14.2 ± 0.3 kcal/mol
O=C(CO)NC1C(O)CC(OCC2OC(Oc3ccc([N+](=O)[O-])cc3)C(O)C(O)C2O)(C(=O)O)OC1C(O)C(O)CO (centres unmarked) | Sialidase-2 (Homo sapiens, UniProt Q9Y3R4) | substrate |  | 10 min, pH 5.0, 37 °C |  | Vmax | 0.0019 ± 0.0001 mM/s
Nc1ccc(C(=O)O)cc1 | BEST1, with wild-type BEST1 (Homo sapiens, UniProt O76090, D302A) | ion current, whole-cell patch clamp | HEK293 co-expressing mutant and wild-type | concentration not given, voltage -20 mV |  | current density | -4.47 pA/pF and -3.27 pA/pF and -3.66 pA/pF and -3.3 pA/pF and -1.46 pA/pF and -1.61 pA/pF
CN1CCN(c2cc(-c3ccncc3)c(-c3ccc4ccccc4c3)nn2)CC1 | CCR2 (Homo sapiens, UniProt P41597) | agonist, FLIPR |  | 12.5 µM |  | activation | 0.7%
CC[C@H](C)[C@H](NC(=O)[C@H](Cc1ccccc1)NC(=O)[C@H](CCC(=O)O)NC(=O)[C@H](CCCNC(=N)N)NC(=O)[C@H](C)NC(=O)[C@H](C)NC(=O)[C@H](CCC(N)=O)NC(=O)[C@H](CCC(=O)O)NC(=O)[C@H](CCC(=O)O)NC(=O)[C@H](CC(C)C)NC(=O)[C@H](Cc1ccc(O)cc1)NC(=O)[C@H](CO)NC(=O)[C@H](CO)NC(=O)[C@@H](NC(=O)[C@H](CC(=O)O)NC(=O)[C@H](CO)NC(=O)[C@@H](NC(=O)[C@H](Cc1ccccc1)NC(=O)[C@@H](NC(=O)CNC(=O)[C@H](CCC(=O)O)NC(=O)[C@H](C)NC(=O)CCc1cnc[nH]1)[C@@H](C)O)[C@@H](C)O)C(C)C)C(=O)N[C@@H](C)C(=O)N[C@@H](Cc1c[nH]c2ccccc12)C(=O)N[C@@H](CC(C)C)C(=O)N[C@H](C(=O)N[C@@H](CCCNC(=N)N)C(=O)NCC(=O)N[C@@H](CCCNC(=N)N)C(=O)N[C@@H](CCCCNC(=O)COCCOCCNC(=O)COCCOCCNC(=O)CC[C@H](NC(=O)CCCCCCCCCCCCCCCCC(=O)O)C(=O)O)C(=O)NCC(=O)NCC(=O)N[C@@H](CO)C(=O)N[C@@H](CCCCNc1c(NCCCCCN(O)C(=O)CCC(=O)NCCCCCN(O)C(=O)CCC(=O)NCCCCCN(O)C(C)=O)c(=O)c1=O)C(=O)NCC(=O)NCC(=O)N[C@@H](CO)C(=O)N[C@@H](CCCCNc1c(NCCCCCN(O)C(=O)CCC(=O)NCCCCCN(O)C(=O)CCC(=O)NCCCCCN(O)C(C)=O)c(=O)c1=O)C(=O)O)C(C)C | GLP1R | agonist, CRE luciferase reporter | BHK cells | Zr-loaded DFO conjugate, together with: 1% HSA | baseline: parent peptide | fold potency loss | 1.2
CC1(C)CC2(C)OC(=O)NC2(C)c2ccccc21 (centres unmarked) | Transcription intermediary factor 1-alpha, PHD-bromodomain (TRIM24, Homo sapiens, UniProt O15164) | binding, affinity selection mass spectrometry |  |  | baseline: other proteins in batch | log fold enrichment | -0.103
CC[C@H](C)[C@H](NC(=O)[C@H](Cc1ccccc1)NC(=O)[C@H](CCC(=O)O)NC(=O)[C@H](CCCNC(=N)N)NC(=O)[C@H](C)NC(=O)[C@H](C)NC(=O)[C@H](CCC(N)=O)NC(=O)[C@H](CCCCNc1c(NCCCCCN(O)C(=O)CCC(=O)NCCCCCN(O)C(=O)CCC(=O)NCCCCCN(O)C(C)=O)c(=O)c1=O)NC(=O)[C@H](CCC(=O)O)NC(=O)[C@H](CC(C)C)NC(=O)[C@H](Cc1ccc(O)cc1)NC(=O)[C@H](CO)NC(=O)[C@H](CO)NC(=O)[C@@H](NC(=O)[C@H](CC(=O)O)NC(=O)[C@H](CO)NC(=O)[C@@H](NC(=O)[C@H](Cc1ccccc1)NC(=O)[C@@H](NC(=O)CNC(=O)[C@H](CCC(=O)O)NC(=O)[C@H](C)NC(=O)CCc1cnc[nH]1)[C@@H](C)O)[C@@H](C)O)C(C)C)C(=O)N[C@@H](C)C(=O)N[C@@H](Cc1c[nH]c2ccccc12)C(=O)N[C@@H](CC(C)C)C(=O)N[C@H](C(=O)N[C@@H](CCCCNc1c(NCCCCCN(O)C(=O)CCC(=O)NCCCCCN(O)C(=O)CCC(=O)NCCCCCN(O)C(C)=O)c(=O)c1=O)C(=O)NCC(=O)N[C@@H](CCCNC(=N)N)C(=O)N[C@@H](CCCCNC(=O)COCCOCCNC(=O)COCCOCCNC(=O)CC[C@H](NC(=O)CCCCCCCCCCCCCCCCC(=O)O)C(=O)O)C(=O)O)C(C)C | GLP1R | agonist, CRE luciferase reporter | BHK cells | metal-free DFO conjugate, together with: 0% HSA | baseline: parent peptide | fold potency loss | 44.7
C[C@@H]1CCO[C@H]2Cn3cc(C(=O)NCc4ccc(F)cc4F)c(=O)c(O)c3C(=O)N12 | SLC22A3 (Homo sapiens, UniProt O75751) | transport | MDCK-II, transfected | 3 µM, together with: MPP+ 2 µM |  | inhibition | 13.6%
[O-][S+]1CCCCS1 (centres unmarked) | SOD1 (Homo sapiens, UniProt P00441, G94A) | LC-MS | brain homogenate | 5 µM, 1 h, 37 °C |  | SOD1 monomer fraction | 98.6%
[Cl-].[Na+] | GUK1 (Homo sapiens, UniProt Q16774) | enzyme activity, NADH-coupled |  | 120 mM |  | reaction velocity | 0.00333 µM/s and 0.023 µM/s and -0.00917 µM/s
O=c1nc(SCc2cc(F)cc(C(F)(F)F)c2)nc(SCc2ccc3nc(Cl)ccc3c2)[nH]1 | TOP2A (Homo sapiens, UniProt P11388) | DNA cleavage |  | 7.8 µM, replicate 1 |  | linear DNA | 0%

Excerpt of the above:
Compound | target | assay | test system | conditions | how to read | quantity | result
[O-][S+]1CCCCS1 (centres unmarked) | SOD1 (Homo sapiens, UniProt P00441, G94A) | LC-MS | brain homogenate | 5 µM, 1 h, 37 °C |  | SOD1 monomer fraction | 98.6%
C[C@@H]1CCO[C@H]2Cn3cc(C(=O)NCc4ccc(F)cc4F)c(=O)c(O)c3C(=O)N12 | SLC22A3 (Homo sapiens, UniProt O75751) | transport | MDCK-II, transfected | 3 µM, together with: MPP+ 2 µM |  | inhibition | 13.6%
